Measured values pooled from the literature.
Parts stem from different laboratories: compare values within a part only.

Set 1 — method: RNA Bind-n-Seq; form: RNA; matrix: in vitro; concentration: 365 nM; relative to: no-protein control; reading: higher = stronger binding
Target: RNA binding protein fox-1 homolog 2, RRM domain, GST-SBP tag (RBFOX2, Homo sapiens, UniProt O43251-10, residues 100-194)
Notes: natural RNA segment, single round, ends assumed
Shared flanks, not repeated: GGGAGUUCUACAGUCCGACGAUC … UGGAAUUCUCGGGUGCCAA
Residues (chain): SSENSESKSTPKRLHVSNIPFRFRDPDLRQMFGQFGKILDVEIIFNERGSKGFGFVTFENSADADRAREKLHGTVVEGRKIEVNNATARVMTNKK
Sequence	RBNS enrichment (R)
UCUUUUUCUUUUUUUUUGGAGGGGGGAGGCAGGGUCUUGCUCUGUCCCUCAGGCUGGAGCUUAGCUCAGUGCAGCCUCCAACUCCUGGGCUCAAGCAAUCCUCCCACUUU	0.26
UAUAGUUUUGAUAACCACAGUUUUAAAUCUUUUAUCUGUGCAUAAUAAAAAGAUAUAUAUCAGUUAUAAUAUGUGUCUUGUUAUCAUUAAAUUCUACCCUAAGGCUCAUG	0.373
AGUGCCUAGUGGAACUGUCCACCCAGCCAGCCACUGUGUGUUAUGGUUCUGCAACCACCAGGGAGGCAGCCCGAGGUGAUGCUGCUCACCGCGCCCUACAGUACCUCAGG	0.407
AAAGAAGGUCUAAGAGCUGAUAUUUGCCAAAGUGAUAGAAGAGUUGUUUUUUCCUCUCUACUACCAAGCUUUAAGACAUUAAAAGAAGUCUAGUGUAUUUGAAUAUUUUA	0.471
GGGUAUUACCUACCAAGAUAAUGAGAGCUUCUAAGGUUGAGGGGAGCUGAAUAGUUUGCACAAGAACGGGAUGCUAGUAAAAACAUAAAAAUAACUCGAAUCAAAUUCCA	0.964
UAAUUCUGAUCCUCUACCUGUAGGAGGACUUUGGUGUGAUCAUCCUUCUCCCAGGGCCCGGCUACCCAGGGAGGAGGAGUCUGGUGUAGCCAACAUUCCUGCCCUAACCC	0.215
UCUCAGUGCCAUAUGAAGUAGCAAAAGGCAGUAUCGGCCAGAUCAGUGUUACAUUGAUUCUAAAAUUACAGUGUCCCCAUUAGACAACUAUUUUAGGUGCUGGAGUAUGU	0.28
CGCUGCUCCUUUUCGGUAGAGGAGAGGCCCAUCACUGGUGUGGUGGGGUGGGCUCUCCCUUAGGCUUGGGCAAGGCAGCCACCUGCCCUUGCUCUCCCUUAGUGUUCCCU	0.192
GAGCCAUUGAGUAGGGAAUUGUAUUGGAUGAUGGUUUUCAUUUUUGUUACUGAAAACAAAGUCUUGUCUAGCACCGUGAGAAUCAUUAAAAAUAAAAUGGCAAUUUUAGC	0.984
CAGAAAACCUGACUCUAACUGGUUUAUAUACAAAAGAAAACUUACUGUAUCAUAUAACAGAAUGAUCCAGGGGAGAUUAAGCUUUGGGCAAGGGCUAUUUACCAGGGCUU	0.512
UUAAAUUUCACAAAGUCAUGAGGGUAAAUGGAGAAAAUAUUUCUGGGAUUACAAUGAAUGUAAGCCCAAAUUGUGGAAUUGCCAGUAACCUGGAUGGGGAAAAGCAUUUC	0.646
GGUGAGAAAGGAUUUGAAACCAUAAAGUGUUUUAAAGAAAUGAACUCUUCAGAAACAGACUUCCUCCUCUUUUCCUUUCUCCUCUGCUCCACAGCCUGUGCUCUGUUCAG	0.465

Set 2 — method: RNA Bind-n-Seq; form: RNA; matrix: in vitro; concentration: 1 µM; notes: whole 134-nt RNA, ends assumed; together with: 150 mM KCl; relative to: input library; reading: higher = stronger binding
Target: Ras GTPase-activating protein-binding protein 1, C-terminal RGG region (G3BP1, Homo sapiens, UniProt Q13283)
Chain of UniProt Q13283 (whole entry, looked up): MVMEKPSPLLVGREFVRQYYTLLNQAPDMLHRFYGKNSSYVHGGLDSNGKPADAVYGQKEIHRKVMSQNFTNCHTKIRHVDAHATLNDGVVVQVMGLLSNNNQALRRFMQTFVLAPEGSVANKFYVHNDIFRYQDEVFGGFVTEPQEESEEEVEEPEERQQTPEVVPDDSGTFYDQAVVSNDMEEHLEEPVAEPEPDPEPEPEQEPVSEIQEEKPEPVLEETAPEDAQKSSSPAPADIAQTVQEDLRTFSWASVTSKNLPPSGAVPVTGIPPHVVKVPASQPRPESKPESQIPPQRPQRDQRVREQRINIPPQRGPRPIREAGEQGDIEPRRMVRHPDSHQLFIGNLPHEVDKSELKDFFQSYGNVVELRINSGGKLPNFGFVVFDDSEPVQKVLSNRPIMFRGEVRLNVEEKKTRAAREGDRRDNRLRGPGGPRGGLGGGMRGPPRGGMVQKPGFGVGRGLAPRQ
Shared flanks, not repeated: GGGAGUUCUACAGUCCGACGAUC … UGGAAUUCUCGGGUGUCAAGG
Sequence	log2 enrichment
UCCCCAGGGCCUGGCCUACUCAAUCUCUCCCACCUCAUCCUCUGGCAUGGACGCAGUCAGGGAGUCUGCUCCAAGCAGACACUGGUGGUC	-0.991
CUGUGCUACACAUCGUAUGUACCGAAUCGGGGCCCCCCCGGGCCCCCCCGGCCCCCCCGGGAAAGUAUUAUGUUACGCCGUUCGGAUCUG	-1.74
UCAAGUCCUGUGCUACACAUCGUAUGUACCGAAUCGGGAAGGGAAGGGAAGGGGAAAGUAUUAUGUUACGCCGUUCGGAUCUGCACUUCC	2.78
ACCAUGCAGGUGGGCAUCUUUGGGAAGUUGGGCAAGGGGGGGAUAGGGAGGGGGGUAACACUUUGGGAACAGGUGGUCCCAGGUCGUUUC	-1.32
GCAGGAAGUAAAAACAAAUGGAAAUGCUUCGGAUAGUGGCAGGGGUGGGGGUUGCUAAGGAAAGGGUUGGAUGGGAGUGGGUAAAGAGUU	1.8
CUGUGCUACACAUCGUAUGUACCGAAUCGGCCCCCCCGGCCCCCCCGGGGCCCCCCCGGGGAAAGUAUUAUGUUACGCCGUUCGGAUCUG	-2.16
GGCUGCUGGAGUGCCGUGAGCAGGCCGCGGGAACGUCGCCGUCACCUUGUCUCGGGGCCUCGGCGCUGCUUCCCGCCAAAACACGUUUAC	-1.69
CAAGUCCUGUGCUACACAUCGUAUGUACCGAAUCGGUGGUUUUUUUGGUUUUUGGAAAGUAUUAUGUUACGCCGUUCGGAUCUGCACUUC	-1.39
UGUGCUACACAUCGUAUGUACCGAAUCGGGGCCCCCCCGGGCCCCCCCGGGGCCCCCCCGGGGAAAGUAUUAUGUUACGCCGUUCGGAUC	-2.69
CACAGACAACACGCACCCACACAGACACAGAGGGAAGGGGUUGGGAUGGGAACAGGGUGCACAGCAGGGCGGGGUAGGACCCCAGCCCCU	-0.678
UGCCUCUGCGGCUAGCUGAUUUUGGGGUACUUCAUAGGAACGAGCUGUCUGGAGCACUCACAGGACUCACCCGGGUACGAAGAUUCCAAC	-1.72
CACAGACAACACGCACCCACACAGACACAGAGGGAAGGGGUUGGGAUGGGGACAGGGUGCACAGCAGGGCGUGGUAGGACCCCAGCCCCU	-0.394
GCAGGAAGUAAAAACAAAUGGAAAUGCUUCGGAUAGUGGCAGGGGUGGGGGUUGCUAAGGAAAGGGUGGGAUGGGAGUGGGUCAAGAGUU	0.584
UCAAGUCCUGUGCUACACAUCGUAUGUACCGAAUCGGAAAGGUUUGGUUUUUGGAAAGUAUUAUGUUACGCCGUUCGGAUCUGCACUUCC	-1.15

Set 3 — method: protein-binding microarray; form: double-stranded DNA, one strand shown; matrix: in vitro; concentration: 2200 nM top; notes: 60-bp whole probe; together with: salmon DNA 0.4 mg/ml; relative to: random background probes; reading: higher = stronger binding; shared flanks, not repeated: GCCTAGCAC … GTCTTGATTCGCTTGACGCTGCTG
Target: Interferon regulatory factor 7, full length, phosphomimetic (IRF7, Homo sapiens, UniProt Q92985, residues 1-503, S471D/S472D/S475D/S476D/S477D/S483D/S484D/S487D)
Construct (chain): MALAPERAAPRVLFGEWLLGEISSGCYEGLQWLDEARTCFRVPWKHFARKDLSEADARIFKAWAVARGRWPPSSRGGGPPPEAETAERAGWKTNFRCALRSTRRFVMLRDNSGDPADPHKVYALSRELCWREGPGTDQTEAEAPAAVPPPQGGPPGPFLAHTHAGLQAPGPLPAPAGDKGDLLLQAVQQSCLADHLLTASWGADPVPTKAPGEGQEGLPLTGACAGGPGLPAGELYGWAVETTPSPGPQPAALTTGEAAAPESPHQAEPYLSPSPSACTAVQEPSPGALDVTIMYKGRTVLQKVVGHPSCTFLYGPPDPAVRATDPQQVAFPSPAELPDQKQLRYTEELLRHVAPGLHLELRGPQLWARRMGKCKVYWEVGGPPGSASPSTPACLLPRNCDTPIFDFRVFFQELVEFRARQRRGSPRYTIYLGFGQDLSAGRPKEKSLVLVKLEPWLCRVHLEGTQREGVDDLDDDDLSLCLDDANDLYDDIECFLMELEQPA
Sequence	fitted relative affinity [z-score]
GACGGTTCCGATTTCGGGACGTGCTAG	2.48
GATGGTATCGACTTTCGGGACGTGCTA	3.41
TTCCCTTTCTCAACCTCCAGGTGCTAG	3.92
CACGGACTGGACTTTCGGGACGTGCTA	1.93
GACGGTTTCGGGACTGGGGCCGTGCTA	3.32
GACGGTATCAGTATCGGGACGTGCTAG	0.154
GACTGTCTCCTACTGCTGACGTGCTAG	1.17
TTAGATATCAGTCTCGATCAGTGCTAG	0.0979
GACGATTCCAGTTTTGAGACGTGCTAG	1.02
GGCTGTTTGGTCCTGATCCTGTGCTAG	0.589
TTCGGTTCCGGTTTCGGTTAGTGCTAG	9.23
GACAATTTGGAAACCGAGTGGTGCTAG	-0.105
AACGGACTGGACTTTCGGGACGTGCTA	1.89
TTAGGTATCCGTATCCTTTAGTGCTAG	1.01
GACGAACTGGCGTATCGAGACGTGCTA	-0.544
GTGTATATGGACGTCTGAAGGTGCTAG	0.485
GGGCCTTGCATGTTTTTGACAGTGCTA	-0.768
GGATGTGTCTTAAATAGGGCAGTGCTA	-0.62
TCAACTAGGGCATTTAGAACTGTGCTA	-1.18
CCCTAGTTGTGTCTTGCCATGTGCTAG	1.18
GACGGACTGGGGTTTCGGGAGGTGCTA	-0.0687
GACCGACTGCTTTTCCTGACGTGCTAG	0.926
TAGGGACTCAGGTCTCCCTTGGTGCTA	-0.533
TTATGTTTCGGGTATCGGTTAGTGCTA	5.72
CTCTCCATGTGTTTAAAAAGGTGCTAG	1.04

Set 4 — method: protein binding microarray; form: double-stranded DNA, one strand shown; matrix: in vitro; concentration: not given; relative to: not given; reading: higher = stronger binding
Target: Histone acetyltransferase KAT6A, both winged helices, GST fusion (KAT6A, Homo sapiens, UniProt Q92794, residues 1-181)
Notes: 8-mer, flanks averaged, mean of 2 arrays, mostly near background
Residues (chain): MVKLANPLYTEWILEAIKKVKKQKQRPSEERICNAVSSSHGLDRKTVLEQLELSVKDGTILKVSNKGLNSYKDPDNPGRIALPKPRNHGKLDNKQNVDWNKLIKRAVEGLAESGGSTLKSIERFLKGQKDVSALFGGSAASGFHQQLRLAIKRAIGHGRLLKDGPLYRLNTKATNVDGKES
Sequence	E-score
AGTCAAGG	-0.194
CCAACCTA	-0.155
ACTTTCAA	-0.0652
GCTCCTCC	-0.109
GTCCAACA	-0.132
ACGCACCA	0.117
GCACTACA	-0.126
CAAAGGTA	-0.0894
GACGACAC	0.103
GCACTGGA	-0.0827
ATTCGCTC	-0.0171
AGTCCACT	-0.37
CCTCGTCA	-0.0224
GGGCAAGA	0.0291
TAGCAAGA	-0.25
CGGCGGCA	0.352
GACAAAGC	0.0595
TCTACGCA	0.0373
CCTGAGAC	-0.24
CTCAACAC	-0.00134
GCTTAGGA	-0.153
CTAAGACA	-0.0819
AACATCGC	0.158
ACCCACAA	-0.0903
ACCCTTTG	-0.119

Set 5 — method: aptamer microarray, sandwich; form: DNA with 2'F-ANA; matrix: in vitro; concentration: 200 nM; together with: Cy3 exosite-II aptamer, 400 nM; reading: higher = stronger binding; sequence: GGTTGGTGTGGTTGG
Target: Prothrombin, mature alpha-thrombin (F2, Homo sapiens, UniProt P00734)
Notes: whole 15-mer aptamer, many near background
Modification	mean fluorescence intensity
2'F-ANA at 2 3 5 6 9 11	74.7 a.u.
2'F-ANA at 1 2 4 6 12 15	322 a.u.
2'F-ANA at 3 4 5 6 7 8 10 12 13	50 a.u.
2'F-ANA at 3 4 5 8 9 10 11 12	60.4 a.u.
2'F-ANA at 3 5 11 13 14	56.4 a.u.
2'F-ANA at 2 4 5 12	178 a.u.
2'F-ANA at 1 2 3 4 6 8 9 10 11 13 14	51 a.u.
2'F-ANA at 4 5 8 9 11 13 14 15	50.4 a.u.
2'F-ANA at 1 6 8 9 15	189 a.u.
2'F-ANA at 1 2 3 4 5 6 7 10 11 14	46.8 a.u.
2'F-ANA at 2 3 4 5 6 7 11 12 13 14 15	52.1 a.u.
2'F-ANA at 1 2 3 6 8 9 10 11 12	75.7 a.u.
2'F-ANA at 3 4 5 6 8 9 12 13 14	53.4 a.u.
2'F-ANA at 4 5 7 8 9 14	45.4 a.u.
2'F-ANA at 2 4 8 9 11 12 13 14	106 a.u.
2'F-ANA at 1 4 6 10 13 14	48.1 a.u.
2'F-ANA at 1 2 3 5 6 9 10 14	45.7 a.u.
2'F-ANA at 2 4 5 8 10 11 14	79.2 a.u.
2'F-ANA at 2 4 6 7 8 15	351 a.u.

Excerpt of the above (set 3):
Sequence	fitted relative affinity [z-score]
TTCCCTTTCTCAACCTCCAGGTGCTAG	3.92
TCAACTAGGGCATTTAGAACTGTGCTA	-1.18
TTAGGTATCCGTATCCTTTAGTGCTAG	1.01
GGGCCTTGCATGTTTTTGACAGTGCTA	-0.768
GACGGTATCAGTATCGGGACGTGCTAG	0.154
GACGGACTGGGGTTTCGGGAGGTGCTA	-0.0687
GGATGTGTCTTAAATAGGGCAGTGCTA	-0.62
GACGGTTTCGGGACTGGGGCCGTGCTA	3.32
